Published values gathered from unrelated publications.
Each numbered part is a random draw from the data of one study; scales do not carry over between parts.

Study 1
Target: Phosphate system positive regulatory protein PHO4, full length, GST-tagged (PHO4, Saccharomyces cerevisiae, UniProt P07270, residues 1-312)
Method: competition protein-binding microarray
Form: double-stranded DNA, one strand shown
Sample: in vitro
Concentration: 2 µM
Notes: whole 60-bp probe, lowest competitor level
Added: Cbf1 competitor, 0.05 µM
Reading: higher = stronger binding
Target sequence (chain): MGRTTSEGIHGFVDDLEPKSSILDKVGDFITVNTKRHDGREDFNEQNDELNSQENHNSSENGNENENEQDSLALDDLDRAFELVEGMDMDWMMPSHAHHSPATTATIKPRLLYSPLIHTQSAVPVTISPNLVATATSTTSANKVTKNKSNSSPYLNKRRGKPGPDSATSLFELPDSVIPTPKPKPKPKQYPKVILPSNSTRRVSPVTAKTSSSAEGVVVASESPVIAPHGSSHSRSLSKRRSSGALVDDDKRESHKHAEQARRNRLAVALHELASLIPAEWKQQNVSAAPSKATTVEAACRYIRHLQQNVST
`GATTCAAGCTTCTTTTGCGTGATGGAATTTAGGATTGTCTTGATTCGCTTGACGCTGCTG` gave a fluorescence intensity of 3730 a.u.
`CCGATGTATTTCTGCCTCGTGCAAAATCTTGCGCCAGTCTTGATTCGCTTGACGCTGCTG` gave a fluorescence intensity of 11500 a.u.
For `TCATTCAGCATTCTCTGCATGACAGCTCTGGCTTCAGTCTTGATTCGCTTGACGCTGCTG`, the fluorescence intensity was 3900 a.u.
The fluorescence intensity of `CGGGGTTAAGTTTGCCTAGTGGGTGGCTTGCAGCAGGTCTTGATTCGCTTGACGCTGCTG` is reported as 4420 a.u.
For `CTAACGAAGGTTTTTCACGTGAAATACAAGCCAAGTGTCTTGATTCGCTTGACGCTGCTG`, the fluorescence intensity was 8580 a.u.
With `GGCAATTGCAAGCCCGTCGTGCTTTTGGGGTGATATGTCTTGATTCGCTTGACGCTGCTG` the fluorescence intensity was 7050 a.u.
With `CATACCCAACCTTGTCACATCACTTAAGATATTTGTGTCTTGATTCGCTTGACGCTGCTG` the fluorescence intensity was 4290 a.u.
`AAAGCCAGGCCGAGTCACGTCAGTTGCTGACCCTGGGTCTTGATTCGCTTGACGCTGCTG` has a fluorescence intensity of 2990 a.u.
The fluorescence intensity of `TTGCCTTTTTCACTTCACGTGCTTTTGGTACATACTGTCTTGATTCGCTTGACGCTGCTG` is reported as 14000 a.u.
With `CACCGATTTGGTAATGCCGTGATGGAACCTCGAGGAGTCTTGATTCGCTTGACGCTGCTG` the fluorescence intensity was 3850 a.u.
`GCGCTGCTGGTGGTGCCCGTGGTGAAGCCAAGGTCGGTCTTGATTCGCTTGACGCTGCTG` gave a fluorescence intensity of 7040 a.u.
`AAAGCGGTAATTTGGGAGGTGGGTGCAGATATCTATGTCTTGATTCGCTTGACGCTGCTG` has a fluorescence intensity of 4760 a.u.
The fluorescence intensity of `CTAACGAAGGTTTTTCACGTGGACTACAAGCCAAGTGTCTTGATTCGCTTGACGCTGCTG` is reported as 14000 a.u.
`AAATTACTAAGTTGAAGCGTGGGTGACGCCGTATGAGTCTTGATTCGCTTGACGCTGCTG` has a fluorescence intensity of 8010 a.u.
With `CTTCTGTAAATTTTTCACGTGACCTGACGCGCCCCGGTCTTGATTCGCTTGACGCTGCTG` the fluorescence intensity was 9980 a.u.
`GACTTCATTTGGAACATCATATAGACAAATGGAGTTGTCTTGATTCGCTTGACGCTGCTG` has a fluorescence intensity of 3310 a.u.
`GCTATTGATCAAGGCCACATGCAAAATAGGGAAGGGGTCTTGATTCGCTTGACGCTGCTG` has a fluorescence intensity of 7770 a.u.
The fluorescence intensity of `CTGGTCCTTCTTTATCACATGTCTTCATGGCTTTCAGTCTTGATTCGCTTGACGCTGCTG` is reported as 9210 a.u.
The fluorescence intensity of `GGCTTTCTAAGTGAGCTCGTGCCAGCACAATTAATAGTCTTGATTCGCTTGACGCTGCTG` is reported as 12700 a.u.

Study 2
Target: RNA binding protein fox-1 homolog 2, RRM domain, GST-SBP tag (RBFOX2, Homo sapiens, UniProt O43251-10, residues 100-194)
Method: RNA Bind-n-Seq
Form: RNA
Sample: in vitro
Concentration: 365 nM
Notes: natural RNA segment, single round, ends assumed
Reference: no-protein control
Reading: higher = stronger binding
Under “RBNS enrichment (R)”, `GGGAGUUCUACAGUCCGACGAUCGCCUUUAUCCAAUAACAAACCAGCAUCUCUUAAAGGCGCUUUUGGCCUAGACACCCCUGAAGUUUGGAUGAAGUCUGGUGGAUUCCCUGUCUGUUGUAUUUCUGUGUGCCUGGAAUUCUCGGGUGCCAA` is recorded as 2.61.
Under “RBNS enrichment (R)”, `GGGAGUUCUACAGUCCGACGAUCAAUAUGGCAUCUUUCGAUUUCUGUAUAAAAACAGACCUUUUAAAAAAUAUUUCUGUAACUUAAGAAACCUGACAUUUAUGUCAUAUUUUCUCUUUAGGUAAGAUUUGGUUUGGAAUUCUCGGGUGCCAA` is recorded as 0.496.
`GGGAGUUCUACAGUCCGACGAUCAAUCCCUCAUAUGAUGUAUCAGAUACAAUUGAGGUUCUAAUCUAGUCUGUUAAUUUAUCUGAAAUUGGAUUUUUUUUUAAAAAAGUAAUAAAAAAUUAAAUACUUCCCUUUGGAAUUCUCGGGUGCCAA`: “RBNS enrichment (R)” 1.25.
Under “RBNS enrichment (R)”, `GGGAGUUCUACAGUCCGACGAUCUGAUUUCUUUCAGCGUUAAAAAGAAACAUAGUGUUGCCCUUUUUCUUAAAGCAUCAGUGAAAUUAUGGAAAAUUACUUAAAACGUGAAUACAUCAUCACAGUAGAAUUUAUGGAAUUCUCGGGUGCCAA` is recorded as 0.367.
For `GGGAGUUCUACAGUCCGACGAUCAGACUGCCUGCCUUGGAGGGGUCACAUGAGGGAGACCUGUGCCUGAUUUCAUUAGGAAAUCCAUUCUGUUAUUUUUUGGUGCUGUUGGCUACUUUAUCAAAAAACCCUUCUGGAAUUCUCGGGUGCCAA`, “RBNS enrichment (R)” read 1.15.
For `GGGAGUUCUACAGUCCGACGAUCUGGUAUGUAUGGUCUGUGUCUUUGGUGAAAUGCAGACUAGAUACCUAAGAACCAGCUUCCCAGUGGGGCUCCCUACUUUGUGUGCACCUUGGGCAGUGCCUCUGGGCACUUGGAAUUCUCGGGUGCCAA`, “RBNS enrichment (R)” read 0.453.
For `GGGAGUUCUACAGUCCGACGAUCCAGGGAGGCUUGCCCUGUGCCAGAAAACAAGAGGCCACCAUAUGCUUCCAAGUUGACAGGCAAUUCCCACACUUCCUUCCUGUCCUGAGUGCCCCAGACUUUAACUGUGUUGGAAUUCUCGGGUGCCAA`, “RBNS enrichment (R)” read 0.47.
Under “RBNS enrichment (R)”, `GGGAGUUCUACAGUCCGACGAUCGCCAAUUUCUCUCAGAUUUCCACAGAGACUGUUUGAAUGUUUUCAAAACCAAGUAUCACACUUUAAUGUACAUGGGCCGCACCAUAAUGAGAUGUGAGCCUUGUGCAUGUUGGAAUUCUCGGGUGCCAA` is recorded as 4.43.

Study 3
Target: RING finger protein unkempt homolog, zinc fingers 1-6, SBP tag (UNK, Homo sapiens, UniProt Q9C0B0, residues 30-357)
Chain of UniProt Q9C0B0 (30-357, looked up): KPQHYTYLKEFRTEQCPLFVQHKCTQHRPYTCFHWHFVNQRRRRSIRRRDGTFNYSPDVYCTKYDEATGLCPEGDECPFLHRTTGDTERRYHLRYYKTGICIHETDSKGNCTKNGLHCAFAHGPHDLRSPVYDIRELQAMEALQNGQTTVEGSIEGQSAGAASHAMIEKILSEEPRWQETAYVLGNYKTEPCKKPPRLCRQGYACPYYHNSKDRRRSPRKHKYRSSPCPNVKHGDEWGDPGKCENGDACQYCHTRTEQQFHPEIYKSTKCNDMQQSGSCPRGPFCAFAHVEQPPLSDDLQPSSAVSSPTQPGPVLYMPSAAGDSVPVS
Method: RNA Bind-n-Seq
Form: RNA
Sample: in vitro
Concentration: 100 nM
Notes: RNA with constant flanks, vertebrate orthologous sites, ends assumed
Reference: input RNA pool
Reading: higher = stronger binding
`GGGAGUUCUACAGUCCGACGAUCGUCAUCUGACUGGAUGAAGACGGUACCAAGUUACAACCAAACAAAUAGCUCUCUGGACUUUAGAAAUUAUAUGAUGAGAGAUGAGAAUUUGGAACCACUGCCCAAAAACUGGGAAAUGGCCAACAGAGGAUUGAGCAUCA` has a bound/input enrichment of 0.717 ratio.
For `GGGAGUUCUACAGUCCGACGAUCCUCUAUGGGCCUCGCAGAGUUGAAAUAAUGGAAGAGGAAAGUGAACAGUAAUCUUCAUUUUAGUAUUUAUGCUUAGGUGUGAAAUAAAUGUUAUUUGUUGAUCAUUUCUAUAACCCAGAGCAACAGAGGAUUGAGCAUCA`, the bound/input enrichment was 0.574 ratio.
The bound/input enrichment of `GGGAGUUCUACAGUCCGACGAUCUAGUACUUAAGCCAACAACAGCUCUAAAAUGCUAUUUAUUUGUGUCUGUAAGUUUGUACAUAGUAAUACCAACCUCAUAUUGUUGCAGAUUUUUUUUUAUCAGUUUGAGUUUUGUUUUGUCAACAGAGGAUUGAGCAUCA` is reported as 0.768 ratio.
The bound/input enrichment of `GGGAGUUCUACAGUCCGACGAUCUACCCGGUACCCCCUAAAACAGAACUUUUUAGGAUUGUGUUGCCACCACUUUUUAAAACUUAGCAAUAUUAAUAUAACACAUGAAUGAAAUUAAUUUUGCUCAUUGUUUUGCGAACCAAACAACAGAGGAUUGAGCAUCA` is reported as 0.336 ratio.
For `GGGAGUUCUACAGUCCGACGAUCACGCUUUGAUAUUAAAUUUGACAUAAAAAGCAGCUGAUUGUAAGCACAACUCUUUCCUCCUAGCCAUUCAAAAAGGUAAAAGACAAAAAAGAAAACCUACUAGUCUUGAACAAACUGUCACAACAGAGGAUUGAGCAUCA`, the bound/input enrichment was 0.569 ratio.
`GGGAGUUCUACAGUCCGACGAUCUCCAUGCCGCUGUCACCAAAAGCAGGCAGCUCCGUCUCACAAUCUCUUUCAUAGCACUUUUAGUACUUCCUCUUCCCUCCCCUUCCCUUUGCUUAGAUGAUGAUAAAAGGUCCUGAGUUUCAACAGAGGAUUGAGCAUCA` gave a bound/input enrichment of 1.16 ratio.

Study 4
Target: Hepatocyte nuclear factor 3-alpha (Foxa1, Mus musculus, UniProt P35582, residues 1-468, full length assumed)
Chain of UniProt P35582 (whole entry, looked up): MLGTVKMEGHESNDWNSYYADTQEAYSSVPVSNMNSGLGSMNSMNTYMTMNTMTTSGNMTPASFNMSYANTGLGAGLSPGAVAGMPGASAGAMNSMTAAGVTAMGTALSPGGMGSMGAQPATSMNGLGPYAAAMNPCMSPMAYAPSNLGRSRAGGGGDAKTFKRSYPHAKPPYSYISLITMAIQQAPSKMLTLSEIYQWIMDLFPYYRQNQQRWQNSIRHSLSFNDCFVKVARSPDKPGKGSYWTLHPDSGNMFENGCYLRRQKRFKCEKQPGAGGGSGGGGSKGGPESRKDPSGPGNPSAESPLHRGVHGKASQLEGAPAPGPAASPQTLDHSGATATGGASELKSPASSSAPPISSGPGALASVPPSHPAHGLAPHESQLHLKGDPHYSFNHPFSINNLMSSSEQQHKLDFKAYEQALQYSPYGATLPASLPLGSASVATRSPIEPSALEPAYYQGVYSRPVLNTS
Method: EMSA with sequencing
Form: double-stranded DNA, one strand shown
Sample: in vitro
Concentration: 10 and 20 nM
Notes: whole designed probe, mean of two concentrations, ends assumed
Reference: negative control set to 0
Reading: higher = stronger binding
Under “normalised bound fraction”, `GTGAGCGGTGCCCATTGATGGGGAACAAAAGTCTGAGCTCATTTATGGTATATTTATTAACAGCCCTAGCCTGGTAAAAAACAACATTGATTTGAACAGTTTTGGATATTTTCCAGCTCCTGTTTACTTTGTTAAAACCATAAAAAAAGTAATCTGGTTCCTTTTGACTTAAATAAGACAAAGAATTCAATACCGAGGCCCTGTTTATAGGTTGTTAAATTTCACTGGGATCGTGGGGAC` is recorded as 0.263 ratio.
For `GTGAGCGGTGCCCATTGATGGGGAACAAAAAAAAAAAGTGTGGATAATTCTAAAAGGGTCACAGCTCAGGCCCCATGATGTAAGTCTCTCTGGGAAGGGTGGCGTTGGCCATCACGCTGTGTAAACAGGGATCCCGGGGGCCAGCATCGCACTGCTCTCCATCCCCAGCGAAAGGAAGGGAGGCAGACACTGGGCAGCGGCACTCGGAGTCCACCCAGTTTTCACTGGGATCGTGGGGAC`, “normalised bound fraction” read 0.347 ratio.
`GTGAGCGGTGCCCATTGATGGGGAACATCTTCCCCCTCTTCCTTGCCCCACCAGCTCACCTACGGGGGTTATTTGCAGATAGGAAAATAAATAAAGCCGGCATTCGTTAACCCTCTTCACGCGCATACTGCTGTTTGCTCTGCATGAATCATGGTCCTTACGCGAGGCGTGGCTCCGGGAGAGCAAAGCACCGTGTCAGGCGCATGATCCGGGGTGGCCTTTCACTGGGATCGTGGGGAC` — result for “normalised bound fraction”: 0.356 ratio.
`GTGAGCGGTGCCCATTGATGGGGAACATCTTCCCCCTCTTCCTTGCCCCACCAGCTCACCTACGGGGGTTATTTGCAGATAGGAAAATAAATAAAGCCGGCATTCGTTAACGCAGTTCTGGCGCAAACTGCTGTTTGCTCTGCATGAATCATGGTCCTTACGCGACGCCAGGCTCCGGGAGAGCAAAGCACCGTGTCAGGCGCATGATCCGGGGTGGCCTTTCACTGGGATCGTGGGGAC` — result for “normalised bound fraction”: 0.354 ratio.
Under “normalised bound fraction”, `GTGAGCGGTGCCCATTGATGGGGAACTGAGCGATGGGTCGAGTTGGCTTACTAAATTGTGGTAGAAATGAGTGTTATAGCTGAATTCACTTGGTAATTAGCACTTGCATTTACAGATTATGTAAACAAGCAATAGATTCAGGTTTGCACAGACTTAGTGATAGAATCCGGTTGCTAGACTCTTAGCCCAACAGGCTTTCCATCACACAATGAGAACAAGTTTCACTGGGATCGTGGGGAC` is recorded as 0.415 ratio.

A few entries again (study 1):
The fluorescence intensity of `CTAACGAAGGTTTTTCACGTGGACTACAAGCCAAGTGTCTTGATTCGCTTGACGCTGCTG` is reported as 14000 a.u.
`AAATTACTAAGTTGAAGCGTGGGTGACGCCGTATGAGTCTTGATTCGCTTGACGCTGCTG` has a fluorescence intensity of 8010 a.u.
With `CTTCTGTAAATTTTTCACGTGACCTGACGCGCCCCGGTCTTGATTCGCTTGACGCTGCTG` the fluorescence intensity was 9980 a.u.
